Assay results of several laboratories.
Parts stem from different laboratories: compare values within a part only.

Study 1 — method: universal PBM; molecule type: double-stranded DNA, one strand shown; sample: in vitro; tested at: not given; direction: higher = stronger binding
Target: Sal-like protein 4, full length isoform B (SALL4, Homo sapiens, UniProt Q9UJQ4-2, residues 1-616)
Notes: 8-mer, flanks averaged, mean of replicates
Sequence | E-score
GCCTTAAC | -0.138
GGCCCTGA | -0.198
GTACTGAC | -0.0012
GCAAGGGA | -0.12
GCTTTCAC | -0.0538
CCAGGTAC | -0.203
ACTGTGGG | -0.277
CCCCAACA | -0.116
ATCAGCAC | 0.0678
CGCGGTCC | -0.36
AATAATCA | 0.344
GATTATGC | 0.0582
GAAATGCA | 0.0372
GTCCATCA | 0.0055
ACGCTACA | 0.0374
ATACTGTG | 0.0515
CACACGGG | -0.288
CACGAGGC | -0.176
ATCTTGAC | -0.0538
ACCAATTA | 0.286
GTACTAAA | 0.244
CGTCCTCC | -0.147
CGTTATGC | 0.189
CAGGGCCA | -0.276
CATGTGCA | 0.0701

Study 2 — method: protein binding microarray; molecule type: double-stranded DNA, one strand shown; sample: in vitro; tested at: not given; baseline: not given; direction: higher = stronger binding
Target: Histone acetyltransferase KAT6A, winged helix 2, GST fusion (KAT6A, Homo sapiens, UniProt Q92794, residues 85-181)
Notes: 8-mer, flanks averaged, mean of 2 arrays, mostly near background
Construct (chain): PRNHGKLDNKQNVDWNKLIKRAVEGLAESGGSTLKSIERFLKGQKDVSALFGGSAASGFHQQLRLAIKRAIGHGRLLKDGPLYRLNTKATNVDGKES
Sequence | E-score
AGTTCACG | -0.00995
AAGTGTCG | 0.0798
AAGGCCTC | -0.122
AACTTAAT | 0.165
CATCGCAC | 0.127
AAAACACA | 0.00372
ATCGCTGA | -0.127
ACGTTCCC | -0.175
ATCACATC | -0.185
CGCTTCAA | -0.00546
AAAATTCC | -0.0668
CTTTGTCC | -0.073
ACCGATTA | -0.12
ACAGGGTC | 0.0945
GCGGTAGC | 0.116
AAGGTCAG | 0.106
ATCCTAGA | -0.136

Study 3 — method: protein-binding microarray; molecule type: double-stranded DNA, one strand shown; sample: in vitro; tested at: 2540 nM top; notes: 60-bp whole probe; together with: salmon DNA 0.4 mg/ml; baseline: random background probes; direction: higher = stronger binding; all sequences stand within: GCCTAGCAC … GTCTTGATTCGCTTGACGCTGCTG
Target: Interferon regulatory factor 3, full length, phosphomimetic (IRF3, Homo sapiens, UniProt Q14653, residues 1-427, S386D/S396D/S398D/S402D/T404D/S405D)
Residues (chain): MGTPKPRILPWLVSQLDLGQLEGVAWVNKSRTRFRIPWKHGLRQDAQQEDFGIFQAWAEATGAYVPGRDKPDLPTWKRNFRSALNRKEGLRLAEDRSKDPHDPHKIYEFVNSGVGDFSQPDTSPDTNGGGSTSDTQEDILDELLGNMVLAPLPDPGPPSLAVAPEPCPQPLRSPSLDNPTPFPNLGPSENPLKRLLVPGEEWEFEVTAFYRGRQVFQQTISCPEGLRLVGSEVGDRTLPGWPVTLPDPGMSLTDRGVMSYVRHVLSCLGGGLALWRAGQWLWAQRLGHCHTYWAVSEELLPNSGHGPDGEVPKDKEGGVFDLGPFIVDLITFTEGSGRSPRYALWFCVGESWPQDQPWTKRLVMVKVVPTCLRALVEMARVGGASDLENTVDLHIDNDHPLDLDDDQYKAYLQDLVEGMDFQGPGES
Sequence | fitted relative affinity [z-score]
TTATATCTCAGTATCGATTAGTGCTAG | 1.37
TCATTTTTGGTTTCTGGACTGTGCTAG | 4
TTAGGACAGGGGTATCGGTTAGTGCTA | 0.0993
GACGAACTAAGTCTCGAGACGTGCTAG | -0.0451
TATGTTCCTTTAGCACTTTGGTGCTAG | 1.82
TTCTTTACCACATTCTCTGCGTGCTAG | 1.57
GACGGTATCCTACTGCTTACGTGCTAG | 2.54
TCAACTTTCTATCTCTGACTGTGCTAG | 2.84
GACGGTCTCCTACTGCCGACGTGCTAG | 1.52
TTAGGTTTGCTTTCCCTTTAGTGCTAG | 5.08
TTAGATTTCAGTTTAGATTAGTGCTAG | 2.91
TCAAAGCAAAAATGATTACTGTGCTAG | -0.303
GACGGTCTCGGTCTCGCGACGTGCTAG | 1.28
GGCTGTTTGATCTTGATCCTGTGCTAG | -0.141
GGCGAACTGAGTATCGAGACGTGCTAG | -0.356
TCAGCTTCCCAATTCTCACTGTGCTAG | 1.95
TTAGGACTGGGACTGGGTTCGTGCTAG | -1.05
GACGGTATCGGGTTTCAGGACGTGCTA | 2.74
TTAAGACTGGGTTTCGGTTAGTGCTAG | 3.2

Study 4 — method: aptamer microarray, sandwich; molecule type: DNA with 2'F-ANA; sample: in vitro; tested at: 200 nM; together with: Cy3 exosite-II aptamer, 400 nM; direction: higher = stronger binding; sequence: GGTTGGTGTGGTTGG
Target: Prothrombin, mature alpha-thrombin (F2, Homo sapiens, UniProt P00734)
Notes: whole 15-mer aptamer, many near background
Modification | mean fluorescence intensity
2'F-ANA at 2 3 5 6 9 11 15 | 68.9 a.u.
2'F-ANA at 1 3 4 6 12 14 | 88.6 a.u.
2'F-ANA at 2 7 12 13 | 647 a.u.
2'F-ANA at 1 3 6 9 10 15 | 75.4 a.u.
2'F-ANA at 1 5 9 13 | 47.1 a.u.
2'F-ANA at 3 4 5 8 9 11 12 15 | 212 a.u.
2'F-ANA at 2 3 8 10 11 12 15 | 372 a.u.
2'F-ANA at 1 2 4 9 10 11 13 14 15 | 45.6 a.u.
2'F-ANA at 6 9 10 12 13 14 | 167 a.u.
2'F-ANA at 1 2 7 8 10 11 12 14 15 | 48.4 a.u.
2'F-ANA at 1 2 4 6 7 8 9 11 12 13 14 | 52.2 a.u.
2'F-ANA at 2 3 4 5 7 9 10 11 14 15 | 47.9 a.u.
2'F-ANA at 3 7 9 13 | 969 a.u.
2'F-ANA at 2 3 4 5 6 7 10 11 14 15 | 56.4 a.u.
2'F-ANA at 3 4 5 6 7 8 9 13 14 | 51.7 a.u.
2'F-ANA at 2 7 9 12 13 | 502 a.u.
2'F-ANA at 1 3 6 8 10 12 13 | 94.4 a.u.
2'F-ANA at 1 2 5 6 11 12 | 85.8 a.u.
2'F-ANA at 1 2 3 5 9 10 11 13 15 | 47.8 a.u.
2'F-ANA at 1 2 4 5 6 8 10 11 12 14 15 | 75.7 a.u.
2'F-ANA at 1 3 4 5 7 8 11 12 15 | 95.8 a.u.
2'F-ANA at 1 3 4 5 6 7 10 11 12 13 14 | 50.4 a.u.

Study 5 — method: RNA Bind-n-Seq; molecule type: RNA; sample: in vitro; tested at: 365 nM; baseline: no-protein control; direction: higher = stronger binding
Target: RNA binding protein fox-1 homolog 2, RRM domain, GST-SBP tag (RBFOX2, Homo sapiens, UniProt O43251-10, residues 100-194)
Notes: natural RNA segment, single round, ends assumed
All sequences stand within: GGGAGUUCUACAGUCCGACGAUC … UGGAAUUCUCGGGUGCCAA
Residues (chain): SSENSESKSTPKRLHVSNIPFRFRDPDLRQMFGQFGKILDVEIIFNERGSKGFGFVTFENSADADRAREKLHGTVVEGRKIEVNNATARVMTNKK
Sequence | RBNS enrichment (R)
GUACCCUCUUGUCAAAAAGGCAUACAUUCAUAAUUGUACAUUCAGCAUUGUAAAUAAUCUUAUGAAACCUUUUUUGAUUGAAGCUAUUCAAAAUAAAAAUUUUAAUGAAU | 0.862
GUGCAAAAUAGUGGUGGUAAAGCACACAUCAUUGGACUAUGCAAGUUGAUUUCUAGGAGCAGCACUGAGCAGCUGGCCAUUGCUAGCACACACCCUUUCCCUCACCUGUA | 1.65
GCCAAAGUUGUAGCUAAAUAUUUAUACACUUGUCUUGAAUUUUUUUCAGAUCCACUUAAAAUAUUUAGAAAAACGAGUUUUAUUCCUUAUGGGUCUUAUAGGGGAUAAAA | 0.549
UUCUAGCUUUUUCCUCCCCACAGGACCUUGGGUAAAAUGGUCAUUUGUAAGGUGAAUUUCAAAGGGAGGGUUUUAGCUUAGGUAGUUAUUUUCUACCUAACUUUUCAAGU | 0.623
AAGAUAAUUAAGAUCCCCCGUGGAGAAAGCAGUGACACAUUCACACAGCUGUUCCCUCGCAUGUUAUUUCAUGAACAUGACCUGUUUUCGUGCACUAGACACACAGAGUG | 1.67
GCCUGCUGCCAUACUGUAUGUAGGAAAGUGUUCUGUGGCUGCUUUGUGUCAAGAAAAGAGCAGUCACUCUCAGAAUCUUGAUUCCCCAUCAGCCAAAGCAAAAGAUGGCU | 0.444
UAAAAUUAAAAUACUAUUGGAAGUGCUUUCAACUCAGCCACAUCUUAGCUAUUAGUUCUUUGUGUUGUCUUAUCAAAGUUUAAUGGAUACAGUUCCACAGUUGUUGAUGU | 0.481
AUUUUUUCCCCAUUUUUCAGAAGCGACAUUUCAUAUAUAGGUGCCAAAAGUGAAUCGGGGUGCGGAGAGUGGGAACCUUUUGAAUUUAUGAUUGUCACAGAGAUGGUAGA | 1.08
ACCCCAGAGUGUUUUCAGUGUGCCAGAGAAGCAGCUGUAGCGUUAGGACAUGAGCCUGUCUAGUGUUUCCUAGGAAAGGGAUAGUUUUCUGUUGGUAUAGCAUUUUCUAA | 2.27
GACGAUUCCUGACCACACUGUCCAGCUCUUGCUCUCAUUAAAUGCUCUGUCUCCCGCGGAAAGCUCCCUGUGCUGCUGACUUGUCUCUGGUUUUCUGCAGUGUGGGGAGC | 0.329
AAGCAGAAUAAUGGAAUAUAAUAUGUCUUCAUAAUAUAACAACACUAAUACACUAAUAGUAAGAUUAAGUUAGGCAGUCUUCUACCAAAUGUGUAAUGGAGAUUGCCUCA | 0.226
CACCAGCCUGAACCAUUUGGUACCUGGUGUUAACUGGAGUCCUGUUUACAAGGUGGAGUCGGGGCUUGCUGACUUCUCUUCAUUUGAGGUCACAUUUUUCCCCCGUGGGG | 0.241

For quick reference, copied from above (study 2):
Sequence | E-score
ATCCTAGA | -0.136
GCGGTAGC | 0.116
CGCTTCAA | -0.00546
ACCGATTA | -0.12
AACTTAAT | 0.165
AAGGTCAG | 0.106
ATCGCTGA | -0.127
ACGTTCCC | -0.175
CATCGCAC | 0.127
AAGGCCTC | -0.122
ACAGGGTC | 0.0945
AAAATTCC | -0.0668
AAAACACA | 0.00372
CTTTGTCC | -0.073
AGTTCACG | -0.00995
AAGTGTCG | 0.0798
